Measurements pooled from the literature.
Parts stem from different laboratories: compare values within a part only.

Set 1
Target: Histone acetyltransferase KAT6A, winged helix 1, GST fusion (KAT6A, Homo sapiens, UniProt Q92794, residues 1-85)
Technique: protein binding microarray
Molecule type: double-stranded DNA, one strand shown
Medium: in vitro
Concentration: not given
Notes: 8-mer, flanks averaged, mean of 2 arrays, mostly near background
Relative to: not given
Reading: higher = stronger binding
Target sequence (chain): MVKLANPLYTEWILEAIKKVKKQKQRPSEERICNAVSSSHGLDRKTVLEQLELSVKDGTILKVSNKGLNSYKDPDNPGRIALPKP
| Sequence | E-score |
| --- | --- |
| CACTGAGG | -0.0584 |
| CGAAGTCA | -0.177 |
| CCTCTTGC | -0.0931 |
| CCTTTTAA | -0.0367 |
| AATGATAC | -0.189 |

Set 2
Target: Phosphate system positive regulatory protein PHO4, full length, GST-tagged (PHO4, Saccharomyces cerevisiae, UniProt P07270, residues 1-312)
Technique: competition protein-binding microarray
Molecule type: double-stranded DNA, one strand shown
Medium: in vitro
Concentration: 2 µM
Notes: whole 60-bp probe, lowest competitor level
Together with: Cbf1 competitor, 0.05 µM
Reading: higher = stronger binding
Residues (chain): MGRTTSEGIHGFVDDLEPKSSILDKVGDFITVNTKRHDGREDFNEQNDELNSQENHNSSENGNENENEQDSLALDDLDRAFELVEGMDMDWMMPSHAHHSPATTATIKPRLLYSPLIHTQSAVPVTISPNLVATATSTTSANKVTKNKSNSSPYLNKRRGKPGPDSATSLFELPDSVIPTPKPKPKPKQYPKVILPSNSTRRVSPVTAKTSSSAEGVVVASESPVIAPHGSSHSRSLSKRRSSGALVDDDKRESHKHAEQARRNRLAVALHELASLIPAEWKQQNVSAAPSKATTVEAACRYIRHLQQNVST
| Sequence | fluorescence intensity |
| --- | --- |
| CTCTTAAGCGCAGGCCACGTGCAGACATCGCTTTCGGTCTTGATTCGCTTGACGCTGCTG | 18500 a.u. |
| AAGTGCAGATCGCTGTCTTGCTCCAATCCTCTTATTGTCTTGATTCGCTTGACGCTGCTG | 2740 a.u. |
| CTTTCCCGATCTTGTCACGGCACTTTAGCACATTTGGTCTTGATTCGCTTGACGCTGCTG | 4870 a.u. |
| GTCTTGTCTCATTGAGCGGTGGGTGTCCCCACTTCAGTCTTGATTCGCTTGACGCTGCTG | 4910 a.u. |

Set 3
Target: TAR DNA-binding protein 43, full length, His tag (TARDBP, Homo sapiens, UniProt Q13148, residues 1-414)
Technique: RNA Bind-n-Seq
Molecule type: RNA
Medium: in vitro
Concentration: 20 nM
Notes: 6-mer, flanks averaged, single round
Together with: 150 mM KCl
Relative to: input library
Reading: higher = stronger binding
| Sequence | 6-mer enrichment (R) |
| --- | --- |
| CGUGAA | 0.831 |
| AAGCUG | 0.783 |
| CGAUGC | 0.764 |
| CACCAA | 0.718 |

Single results of other studies
| Molecule | target | assay | test system | setting | how to read | measurement | result |
| --- | --- | --- | --- | --- | --- | --- | --- |
| PhoQ, residues 284 288 289 292 302 303 TSTLRA | PhoP, residues 12 14 15 18 19 SQCLL (Escherichia coli, UniProt P23836) | Sort-seq, measured: YFP reporter | E. coli | PhoQ-PhoP variant library, together with: 10 µM Mg2+ | relative to: high Mg2+ state, higher = stronger signaling | fold induction | 5.88 |

For quick reference, copied from above (set 3):
| Sequence | 6-mer enrichment (R) |
| --- | --- |
| CGUGAA | 0.831 |
| CACCAA | 0.718 |
